Measurements from different studies.
Protocols differ between the studies behind these lines. Several values in a cell are separate wells, animals, samples, runs or records. Numbers after ± are the reported error.
Dipeptidyl peptidase 8: Dipeptidyl peptidase 8 (Homo sapiens, UniProt Q6V1X1)
Chain of UniProt Q6V1X1 (whole entry, looked up): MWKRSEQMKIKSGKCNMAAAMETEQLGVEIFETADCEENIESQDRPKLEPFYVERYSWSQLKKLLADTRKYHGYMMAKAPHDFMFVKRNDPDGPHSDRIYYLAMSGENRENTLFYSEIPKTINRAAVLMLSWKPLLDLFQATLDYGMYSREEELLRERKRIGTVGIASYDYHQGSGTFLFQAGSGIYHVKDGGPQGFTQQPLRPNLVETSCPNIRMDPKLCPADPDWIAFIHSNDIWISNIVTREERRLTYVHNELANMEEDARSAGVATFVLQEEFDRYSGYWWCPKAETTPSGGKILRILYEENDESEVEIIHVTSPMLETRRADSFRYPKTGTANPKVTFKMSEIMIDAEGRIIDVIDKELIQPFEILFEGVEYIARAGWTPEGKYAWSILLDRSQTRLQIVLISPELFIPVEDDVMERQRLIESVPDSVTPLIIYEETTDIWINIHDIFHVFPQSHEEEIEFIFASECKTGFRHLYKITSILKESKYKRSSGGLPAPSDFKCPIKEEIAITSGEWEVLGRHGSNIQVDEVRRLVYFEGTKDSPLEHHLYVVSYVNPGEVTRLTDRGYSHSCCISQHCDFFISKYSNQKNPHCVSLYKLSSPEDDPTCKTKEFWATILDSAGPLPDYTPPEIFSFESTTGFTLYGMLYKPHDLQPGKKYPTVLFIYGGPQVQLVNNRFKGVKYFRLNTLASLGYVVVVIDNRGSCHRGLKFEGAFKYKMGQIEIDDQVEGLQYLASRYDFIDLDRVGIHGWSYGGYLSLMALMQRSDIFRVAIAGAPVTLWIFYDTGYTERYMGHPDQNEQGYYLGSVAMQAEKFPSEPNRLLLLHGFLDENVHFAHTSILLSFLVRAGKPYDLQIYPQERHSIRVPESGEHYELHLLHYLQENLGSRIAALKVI
Astl: Astacin-like metalloendopeptidase (Astl, Mus musculus, UniProt Q6HA09)
Chain of UniProt Q6HA09 (whole entry, looked up): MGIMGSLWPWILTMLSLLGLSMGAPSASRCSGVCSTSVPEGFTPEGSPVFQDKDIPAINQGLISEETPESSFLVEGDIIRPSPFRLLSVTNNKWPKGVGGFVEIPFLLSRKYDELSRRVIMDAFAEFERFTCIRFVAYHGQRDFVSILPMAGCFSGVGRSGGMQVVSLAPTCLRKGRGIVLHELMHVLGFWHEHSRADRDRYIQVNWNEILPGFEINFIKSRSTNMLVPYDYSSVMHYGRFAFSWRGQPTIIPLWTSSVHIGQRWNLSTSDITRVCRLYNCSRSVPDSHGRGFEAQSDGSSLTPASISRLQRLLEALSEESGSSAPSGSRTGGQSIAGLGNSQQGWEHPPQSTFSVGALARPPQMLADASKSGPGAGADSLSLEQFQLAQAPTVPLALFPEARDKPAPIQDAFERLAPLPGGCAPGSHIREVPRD
STING1 H232R: Stimulator of interferon genes protein (STING1, Homo sapiens, UniProt Q86WV6, H232R)
Chain of UniProt P28482 (whole entry, looked up): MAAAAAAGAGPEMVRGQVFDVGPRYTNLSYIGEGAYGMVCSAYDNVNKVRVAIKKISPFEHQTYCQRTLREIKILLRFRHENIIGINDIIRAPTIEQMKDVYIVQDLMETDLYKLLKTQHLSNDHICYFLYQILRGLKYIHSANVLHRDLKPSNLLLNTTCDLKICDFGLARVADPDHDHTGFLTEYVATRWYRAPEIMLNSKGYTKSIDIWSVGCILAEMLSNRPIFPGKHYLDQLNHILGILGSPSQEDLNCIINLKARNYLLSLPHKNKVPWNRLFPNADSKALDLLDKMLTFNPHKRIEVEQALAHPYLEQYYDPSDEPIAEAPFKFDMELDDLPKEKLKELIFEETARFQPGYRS
Chain of UniProt Q86WV6 (whole entry, unmodified, looked up): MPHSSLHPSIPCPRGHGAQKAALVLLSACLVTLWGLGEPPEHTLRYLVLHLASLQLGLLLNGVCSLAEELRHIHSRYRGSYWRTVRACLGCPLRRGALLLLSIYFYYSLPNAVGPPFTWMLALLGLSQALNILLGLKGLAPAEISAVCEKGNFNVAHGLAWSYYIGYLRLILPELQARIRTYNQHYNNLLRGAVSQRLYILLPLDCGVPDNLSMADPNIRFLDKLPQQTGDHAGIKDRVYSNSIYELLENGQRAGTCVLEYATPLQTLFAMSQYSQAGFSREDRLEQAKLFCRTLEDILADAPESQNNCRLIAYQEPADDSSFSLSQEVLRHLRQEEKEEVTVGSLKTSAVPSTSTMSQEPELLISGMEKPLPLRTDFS
Chain of UniProt O00750 (whole entry, looked up): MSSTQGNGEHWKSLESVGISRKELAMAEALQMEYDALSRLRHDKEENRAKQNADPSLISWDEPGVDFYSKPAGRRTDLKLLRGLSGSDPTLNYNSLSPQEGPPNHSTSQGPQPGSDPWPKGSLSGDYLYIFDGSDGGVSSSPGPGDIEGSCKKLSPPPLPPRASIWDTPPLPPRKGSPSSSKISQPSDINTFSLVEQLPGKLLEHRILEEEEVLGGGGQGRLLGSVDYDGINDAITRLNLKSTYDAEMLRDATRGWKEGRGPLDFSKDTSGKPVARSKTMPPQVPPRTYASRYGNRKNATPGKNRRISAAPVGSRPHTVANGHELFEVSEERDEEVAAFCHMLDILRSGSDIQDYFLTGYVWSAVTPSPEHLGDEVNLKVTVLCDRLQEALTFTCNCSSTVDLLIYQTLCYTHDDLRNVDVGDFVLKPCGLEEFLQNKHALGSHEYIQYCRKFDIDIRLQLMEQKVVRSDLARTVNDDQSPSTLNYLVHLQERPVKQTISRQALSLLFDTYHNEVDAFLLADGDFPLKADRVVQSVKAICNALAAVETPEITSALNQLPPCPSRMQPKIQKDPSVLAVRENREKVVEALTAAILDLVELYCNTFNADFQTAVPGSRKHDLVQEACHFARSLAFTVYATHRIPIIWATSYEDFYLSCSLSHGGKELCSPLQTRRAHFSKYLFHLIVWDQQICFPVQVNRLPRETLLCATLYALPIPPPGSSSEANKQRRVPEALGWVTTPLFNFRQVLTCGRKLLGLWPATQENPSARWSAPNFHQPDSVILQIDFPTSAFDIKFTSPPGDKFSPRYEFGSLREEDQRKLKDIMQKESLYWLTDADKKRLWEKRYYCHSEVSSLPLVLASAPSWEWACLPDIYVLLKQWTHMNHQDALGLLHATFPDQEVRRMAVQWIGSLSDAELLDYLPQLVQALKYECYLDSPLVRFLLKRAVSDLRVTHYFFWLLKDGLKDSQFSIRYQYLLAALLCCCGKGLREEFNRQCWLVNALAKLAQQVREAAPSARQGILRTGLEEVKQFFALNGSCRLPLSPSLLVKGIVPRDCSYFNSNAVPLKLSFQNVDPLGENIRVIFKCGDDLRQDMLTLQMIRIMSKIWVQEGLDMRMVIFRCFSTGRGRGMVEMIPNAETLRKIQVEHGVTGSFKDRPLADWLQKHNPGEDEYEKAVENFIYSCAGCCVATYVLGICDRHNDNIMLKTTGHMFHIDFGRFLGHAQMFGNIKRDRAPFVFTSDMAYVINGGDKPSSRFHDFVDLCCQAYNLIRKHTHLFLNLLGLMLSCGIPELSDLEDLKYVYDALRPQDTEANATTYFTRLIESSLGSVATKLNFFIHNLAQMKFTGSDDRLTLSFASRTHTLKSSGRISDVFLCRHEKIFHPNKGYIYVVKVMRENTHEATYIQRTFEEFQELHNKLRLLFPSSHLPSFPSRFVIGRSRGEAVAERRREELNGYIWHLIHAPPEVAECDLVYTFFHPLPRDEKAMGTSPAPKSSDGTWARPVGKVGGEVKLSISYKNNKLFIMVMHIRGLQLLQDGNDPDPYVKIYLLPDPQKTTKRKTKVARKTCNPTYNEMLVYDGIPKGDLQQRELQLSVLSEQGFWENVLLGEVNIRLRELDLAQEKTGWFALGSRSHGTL
Chain of UniProt P35968 (whole entry, looked up): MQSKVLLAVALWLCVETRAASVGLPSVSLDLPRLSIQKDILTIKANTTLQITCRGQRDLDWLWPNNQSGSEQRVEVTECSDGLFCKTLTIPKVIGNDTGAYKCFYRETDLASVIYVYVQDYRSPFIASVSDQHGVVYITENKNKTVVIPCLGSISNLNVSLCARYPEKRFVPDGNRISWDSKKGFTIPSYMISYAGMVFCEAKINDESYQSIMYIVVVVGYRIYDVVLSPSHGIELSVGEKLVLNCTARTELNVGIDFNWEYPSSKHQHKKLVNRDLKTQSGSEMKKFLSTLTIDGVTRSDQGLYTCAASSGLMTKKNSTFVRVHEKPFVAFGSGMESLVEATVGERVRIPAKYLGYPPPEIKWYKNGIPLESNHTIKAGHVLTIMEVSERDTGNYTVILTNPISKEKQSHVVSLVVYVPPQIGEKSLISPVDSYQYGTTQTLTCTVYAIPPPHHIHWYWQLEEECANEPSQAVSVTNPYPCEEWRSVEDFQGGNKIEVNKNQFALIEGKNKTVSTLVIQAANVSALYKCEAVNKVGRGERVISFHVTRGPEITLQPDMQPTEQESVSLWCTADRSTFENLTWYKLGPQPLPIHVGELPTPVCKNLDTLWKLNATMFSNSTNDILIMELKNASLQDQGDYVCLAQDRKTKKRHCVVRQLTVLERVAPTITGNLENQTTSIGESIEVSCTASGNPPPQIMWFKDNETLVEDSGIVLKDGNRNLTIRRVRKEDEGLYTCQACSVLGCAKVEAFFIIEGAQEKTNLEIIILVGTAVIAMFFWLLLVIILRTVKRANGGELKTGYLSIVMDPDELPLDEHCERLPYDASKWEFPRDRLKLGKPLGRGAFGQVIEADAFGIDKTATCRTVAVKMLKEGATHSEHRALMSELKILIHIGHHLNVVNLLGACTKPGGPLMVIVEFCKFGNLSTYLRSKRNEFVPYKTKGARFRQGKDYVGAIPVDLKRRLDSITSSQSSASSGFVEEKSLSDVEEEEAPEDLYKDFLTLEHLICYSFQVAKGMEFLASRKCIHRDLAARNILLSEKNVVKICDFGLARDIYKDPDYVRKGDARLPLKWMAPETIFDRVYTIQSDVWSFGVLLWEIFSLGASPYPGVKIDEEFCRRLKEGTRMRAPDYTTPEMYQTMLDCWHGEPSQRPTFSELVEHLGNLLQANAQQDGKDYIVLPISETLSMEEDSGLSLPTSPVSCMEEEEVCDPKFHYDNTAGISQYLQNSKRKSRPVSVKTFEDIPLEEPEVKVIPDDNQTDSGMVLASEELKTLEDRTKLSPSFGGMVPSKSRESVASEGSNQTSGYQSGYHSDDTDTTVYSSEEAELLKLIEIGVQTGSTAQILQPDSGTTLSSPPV

Compound | target or system | assay | system | setting | scale | quantity | value
COC1CN([C@H]2CC[C@H]([C@@]3(C)Oc4c(Cl)cc(C(=O)NCc5c(SC)cc(C)[nH]c5=O)c(C)c4O3)CC2)C1 |  | RNA-seq, refers to: PIAS2 | human, whole blood | dose not given, 24 h | baseline: pretreatment baseline | log2 fold change | 1.34
CCC1(CC)C(=O)N(c2cccc(CN3CCN(Cc4cccc5cccnc45)CC3)c2)C1=O | Dipeptidyl peptidase 8 | enzyme activity, inhibitor |  | 5 µM |  | remaining activity | 16%
O=C(CCN(Cc1ccc(Cl)cc1F)Cc1ccc(Cl)cc1F)NO | Astl | enzyme activity, inhibitor, fluorogenic |  | 5 µM |  | remaining activity | 14 ± 2%
CCC1(CC)C(=O)N(c2cccc(CN3CCc4cc5c(cc4C3)OCO5)c2)C1=O | Dipeptidyl peptidase 8 | enzyme activity, inhibitor |  | 5 µM |  | remaining activity | 12%
CCN(CC)CC#CCNc1ccnc2cc(Cl)ccc12 | Salmonella typhimurium | mini-Ames test | TA100 | 62.5 µg/well, with rat liver S9 |  | mean revertants | 17 revertants/well
CC(C)[C@@H]1NC(=O)[C@H](Cc2ccccc2)NC(=O)CSC[C@@H](C(N)=O)NC(=O)[C@H](CCC(=O)O)NC(=O)[C@H](CO)NC(=O)[C@H](Cc2c[nH]c3cccc(Cl)c23)NC(=O)[C@H](C2CCCCC2)NC(=O)[C@H](C(C)C)NC(=O)[C@H](Cc2ccc(O)cc2)NC(=O)[C@H](CC(=O)O)NC(=O)[C@H](Cc2c[nH]c3ccccc23)NC(=O)[C@H](Cc2ccc(N)nc2)NC(=O)[C@H](Cc2c[nH]c3ccc(Cl)cc23)NC(=O)[C@H](CCC(=O)O)NC1=O | Interleukin-1 receptor-like 2 (IL1RL2, Homo sapiens, UniProt Q9HB29) | reporter gene (SEAP), inhibitor, HEK-Blue IL-36R reporter | HEK-Blue IL-36R cells | 0.41 µM, 6 h, with: IL-36γ 0.1 ng/mL |  | remaining activity | 7.9%
N=C(NCC[C@H](NC(=O)c1ncn(-c2ccccc2)n1)c1nc2ccccc2[nH]1)c1ccc([N+](=O)[O-])o1 | STING1 H232R | reporter gene, inhibitor | THP1-Dual KI-hSTING-R232 | 24 h, 1 h preincubation, with: diABZI 500 nM |  | EC50 | 9.1 µM
O=C(CCN(Cc1cccc(C(=O)O)c1)Cc1cccc(C(=O)O)c1)NO | Astl | enzyme activity, inhibitor, fluorogenic |  | 0.25 µM |  | remaining activity | 86 ± 4%
Cc1cnc2nc1Nc1cccc(c1)COC/C=C/COCc1cc(ccc1OCCN1CCOCC1)N2 | EGFR (Homo sapiens, UniProt P00533, T790M) |  |  | concentration not given | baseline: untreated control | remaining activity | 100%
Cc1cccc(Nc2n[nH]c3nc(-c4ccccc4)nc(N)c23)c1 | HeLa Ohio |  |  | 72 h |  | CC50 | 87.5 µM
COc1ccccc1-c1ccncc1C(=O)Nc1nnc(OCc2ccc(Cl)cc2)s1 | Bifunctional 3'-5' exonuclease/ATP-dependent helicase WRN, residues 500-946 (WRN, Homo sapiens, UniProt Q14191) | ATPase activity, ADP-Glo |  | 0.06 µM | baseline: 0 µM cpd | remaining activity | 109%
Cc1cc(NC(=O)c2cccc(NC(=O)/C(C#N)=C/C(C)(C)C)c2)ccc1Nc1nccc(-c2cccnc2)n1 | Mitogen-activated protein kinase 8, phosphorylated (MAPK8, Homo sapiens, UniProt P45983) | enzyme activity after dialysis, inhibitor |  | 10 µM, 1 days, unit not given | baseline: no inhibitor | remaining activity | 0.3
Cc1nn(-c2cccc(N)c2)c(=O)c2cnc(Nc3ccc(N4CCNCC4)cc3)nc12 | PIK3C2B (Homo sapiens, UniProt O00750) | kinase activity, inhibitor, SelectScreen kinase profiling |  |  |  | IC50 | > 10 µM
CN(Cc1cc(C2CC2)on1)C(=O)c1cccc(-c2ccc3c(c2)CCO3)c1 | acetoacetyl-CoA synthetase (Cryptococcus neoformans) | enzyme activity, inhibitor |  | 15.6 µM |  | remaining activity | 96.8%
N#Cc1cnc2sc(C(=O)O)cc2c1N1CCc2[nH]nc(C(=O)N[C@@H](CC(=O)NCCOCCN3CCOCC3)c3cccc(Br)c3)c2C1 | IL1R1 (Homo sapiens, UniProt P14778) | SEAP reporter gene, antagonist | HEK-Blue IL-36R cells | 33.33 µM, 6 h, with: IL-1β 5 ng/mL | baseline: untreated | remaining activity | 102%
COc1ccc(NC(=O)c2c(Nc3ccccc3)sc(C(=O)N/N=C/c3ccc(OC)c(OC)c3)c2NC(C)=O)cc1 | KDR (Homo sapiens, UniProt P35968) | enzyme activity, inhibitor |  | 10 nM |  | remaining activity | 96%
O=C(CN(Cc1ccccc1)Cc1cccc(C(=O)O)c1)NO | Astl | enzyme activity, inhibitor, fluorogenic |  | 5 µM |  | remaining activity | 75 ± 1%
C[C@](C(=O)NC1CCOCC1)(c1cncnc1)N(C(=O)[C@H](F)Cl)c1ccc(OC(F)(F)Cl)cc1 | Plasminogen (PLG, Homo sapiens, UniProt P00747) | enzyme activity, inhibitor |  | 10 µM |  | remaining activity | 100%
O=C(CN(Cc1cccc(C(=O)O)c1)Cc1ccc2c(c1)OCO2)NO | Astl | enzyme activity, inhibitor, fluorogenic |  | 5 µM |  | remaining activity | 39 ± 3%
Cc1ccc(C[C@H](NC(=O)CN2CCCc3cc4cc(C(=O)NCCNC(=O)CCCC[C@@H]5SC[C@@H]6NC(=O)N[C@@H]65)c(=O)oc4cc32)C(=O)NC/C=C/S(=O)(=O)c2ccccc2)cc1 | Rhodesain (rhodesain, Trypanosoma brucei rhodesiense, UniProt Q95PM0) | enzyme activity, inhibitor, fluorescence |  | 5 µM |  | remaining activity | 7%
Cc1ncsc1-c1ccc(C(C)NC(=O)C2CC(O)CN2C(=O)C(NC(=O)CCCCCCCCCCN2CCCC(Nc3ncc(Cl)c(Nc4ccccc4S(=O)(=O)C(C)C)n3)C2)C(C)(C)C)cc1 (stereo not shown) | 22Rv1 | RNA-seq, refers to: SGPP2 mRNA |  | concentration not given | baseline: DMSO | log2 fold change | -2.73
O=C(CCN(Cc1cccnc1)Cc1ccc(Cl)c(O)c1F)NO | Astl | enzyme activity, inhibitor, fluorogenic |  | 5 µM |  | remaining activity | 51 ± 5%
O=C(N[C@@H](CCNC(=O)c1ccc([N+](=O)[O-])o1)c1nc2ccccc2[nH]1)c1cnn(-c2ccccc2)n1 | STING1 H232R | reporter gene, inhibitor | THP1-Dual KI-hSTING-R232 | 24 h, 1 h preincubation, with: diABZI 500 nM |  | EC50 | 15.8 µM
O=C(CN(Cc1cccc(C(=O)O)c1)Cc1cccc(C(=O)O)c1)NO | Astl | enzyme activity, inhibitor, fluorogenic |  | 5 µM |  | remaining activity | 42 ± 3%
COC(=O)[C@@]1(C)C=C(C(=O)Nc2cccc(C(=O)Nc3ccc(Nc4nccc(-c5cccnc5)n4)c(C)c3)c2)C(=O)CC1 | MAPK1 (Homo sapiens, UniProt P28482) | enzyme activity, inhibitor |  | 0.06097 µM, unit not given | baseline: vehicle | remaining activity | 0.932 and 0.941 and 0.967

Repeated from above:
Compound | target or system | assay | system | setting | scale | quantity | value
N=C(NCC[C@H](NC(=O)c1ncn(-c2ccccc2)n1)c1nc2ccccc2[nH]1)c1ccc([N+](=O)[O-])o1 | STING1 H232R | reporter gene, inhibitor | THP1-Dual KI-hSTING-R232 | 24 h, 1 h preincubation, with: diABZI 500 nM |  | EC50 | 9.1 µM
O=C(CCN(Cc1cccc(C(=O)O)c1)Cc1cccc(C(=O)O)c1)NO | Astl | enzyme activity, inhibitor, fluorogenic |  | 0.25 µM |  | remaining activity | 86 ± 4%
Cc1cnc2nc1Nc1cccc(c1)COC/C=C/COCc1cc(ccc1OCCN1CCOCC1)N2 | EGFR (Homo sapiens, UniProt P00533, T790M) |  |  | concentration not given | baseline: untreated control | remaining activity | 100%
Cc1cccc(Nc2n[nH]c3nc(-c4ccccc4)nc(N)c23)c1 | HeLa Ohio |  |  | 72 h |  | CC50 | 87.5 µM
